Experimental data from different studies.
A part holds a random share of what one study measured.

Series 1 — method: protein binding microarray; molecule type: double-stranded DNA, one strand shown; matrix: in vitro; concentration: not given; relative to: not given; direction: higher = stronger binding
Target: Histone acetyltransferase KAT6A, winged helix 1, GST fusion (KAT6A, Homo sapiens, UniProt Q92794, residues 1-85)
Notes: 8-mer, flanks averaged, mean of 2 arrays, mostly near background
Construct (chain): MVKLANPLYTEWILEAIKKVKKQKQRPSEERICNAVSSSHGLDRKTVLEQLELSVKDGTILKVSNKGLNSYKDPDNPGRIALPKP
With `ATATTGGG` the E-score was -0.0665.
The E-score of `GGTTTCAC` is reported as -0.0358.
`AAGAACGA` has an E-score of -0.12.
`ATTAAATG` gave an E-score of -0.116.
`GAGCCGGA` gave an E-score of 0.106.
`GCGCGTAC` gave an E-score of 0.433.
With `CATCTACG` the E-score was 0.276.
`ATTGCGTG` has an E-score of 0.0769.
The E-score of `ACCCTTCC` is reported as 0.0379.
With `AAACGAAA` the E-score was -0.0212.
`GCTTAAAA` gave an E-score of -0.0617.
`ACATCCGA` gave an E-score of 0.073.
The E-score of `AATGTTCT` is reported as -0.233.
`AGAGGAAC` has an E-score of -0.175.
For `AGCTTCTC`, the E-score was -0.0434.
The E-score of `CAACGTGG` is reported as -0.156.
The E-score of `GTTCATGA` is reported as -0.198.
For `GGAGAATA`, the E-score was -0.101.
`CACCATTC` gave an E-score of -0.145.
The E-score of `CGTAATAG` is reported as 0.0731.
The E-score of `AATTACCA` is reported as -0.0938.

Series 2 — method: RNA Bind-n-Seq; molecule type: RNA; matrix: in vitro; concentration: 365 nM; relative to: no-protein control; direction: higher = stronger binding
Target: RNA binding protein fox-1 homolog 2, RRM domain, GST-SBP tag (RBFOX2, Homo sapiens, UniProt O43251-10, residues 100-194)
Notes: natural RNA segment, single round, ends assumed
Target sequence (chain): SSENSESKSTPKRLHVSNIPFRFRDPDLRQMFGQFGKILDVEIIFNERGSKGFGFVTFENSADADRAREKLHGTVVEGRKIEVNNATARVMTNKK
Under “RBNS enrichment (R)”, `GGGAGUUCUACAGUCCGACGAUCAUUGGAUUAAAUGGUUUACAGGUUAUCUGAAUCUACAGAUUUAGUAUGUCUAUUAUCUGGACAUGAUUUUGCUAUGCAGUUGUGAUAAUAAAAAUUCUAAUUCCUCAGGUUGGAAUUCUCGGGUGCCAA` is recorded as 0.723.
`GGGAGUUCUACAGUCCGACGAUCUGAGAGACGGCAGACUGAGCAGAAUUCCUUUUUUGAGCACGAGAGCAUUACUAGAACCAUUGUCAAAGCAGUGGCAAGGGACGGAGAGGUCCCAACAGGAGUCAGGAAGAUGGAAUUCUCGGGUGCCAA`: “RBNS enrichment (R)” 1.51.
`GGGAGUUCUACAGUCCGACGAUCGGCCAGAACUUGAGUAUUUACUAACACGUUUUUCAAAAGAUGUCAGUGUUAUACCUAAAGCUAAAAAAAAGCAAGGGUUUGUCAUAGAGGGAACCUCUAAAUAAUUUCAGUGGAAUUCUCGGGUGCCAA` — result for “RBNS enrichment (R)”: 0.314.
Under “RBNS enrichment (R)”, `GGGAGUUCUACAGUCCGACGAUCGGCUCCAACUUCAGGAAAUAAAUUUCCCAUUGCGAGGGACCCAGCUCUGUUUCUGCUGCUUCCAUCAAAGCCAAAAGGACCUACACUAAAGAAAUGCAGGGUGGGGGUGGUGGAAUUCUCGGGUGCCAA` is recorded as 0.445.
`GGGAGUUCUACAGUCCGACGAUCGAGUGUGAAACAAGGCAAGUCUCAGACCAGCAAUAAAUUAUUCAGUUUGGCUAACCUUAUUUUGUGCUGUUAAUCUACCAAAGUGUUUUGUCUACCCCUUUAAUAAGUUGUGGAAUUCUCGGGUGCCAA` — result for “RBNS enrichment (R)”: 0.295.
`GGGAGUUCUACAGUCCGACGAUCAUGGAGUUCCAUUCUUGACAUCUACUUUGGACCAAGGAGCAUCCCUAGUUCUUCAUAGGGACUCUUAAAAUGCAGGAGAACCAUCCGAAGUCAACUCGGGGGACAUGCAAUGGAAUUCUCGGGUGCCAA` — result for “RBNS enrichment (R)”: 0.214.
For `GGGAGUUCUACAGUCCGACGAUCCCUAGCGACAUUAGCUGAGAACACCACGGAGCUGCUUCCCUCCCUCUGCAGUCAGUCUGUUUUCAGAGGCACCCCAGCGAGCCCAGUGCAAGCCCGUAACCCUCCAGAGCUGGAAUUCUCGGGUGCCAA`, “RBNS enrichment (R)” read 0.588.
For `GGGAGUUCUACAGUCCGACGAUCUCCUUCCGACAGGAGCUGACUCAUGUCAGGAUGGCAGGCCUGGUAUCUUGCUCGGGCCCUAGCUGUUGGGGUUCUCAUGGGUUGCACUGACCAUACUGCUUACGUCUUAGUGGAAUUCUCGGGUGCCAA`, “RBNS enrichment (R)” read 0.492.
For `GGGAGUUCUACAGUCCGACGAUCUGCUAACCUUUGCACAUACUCUGUUUUUACUUUGAUGGCUUCUCCAGGUUUUUGUCAGGUACCACAUGUAGAAUUACAUUUUUCUUAAAAGAUUGAUCAUCCAAAUGGCAUGGAAUUCUCGGGUGCCAA`, “RBNS enrichment (R)” read 1.64.
Under “RBNS enrichment (R)”, `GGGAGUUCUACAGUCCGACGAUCAAGGAUGUGAAAGUUUUUAUAUGUAUAAUGUUUUAUACACUUUUUAACUGGUUGCACUACCCGUGAAGAAUUCAUGGGACAGCCACUGCUGAGUGACUAACAUGAUGCACUGGAAUUCUCGGGUGCCAA` is recorded as 0.512.
`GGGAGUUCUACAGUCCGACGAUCGCUCGUAGUCCAGCGCCUGACUCUGCGUCGGCCCAUCCCACGCUGGGGCCAGCAGAAAGAAGACAGGCUGUCCAGGCCGCACCCGCUGCAGUGGGGCACCAGCCGGCCACUGGAAUUCUCGGGUGCCAA` — result for “RBNS enrichment (R)”: 0.341.
`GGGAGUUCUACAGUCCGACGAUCAUCACAAAAUACUGCUUCAAGAUUUAAUUUUAAAUCUGCUAAUUUAAGGGAUAUUGGGAAAAGUUUUGGUGUGUUUCUGUUGAUUUCUUUUUUGUAUGCUGUGAUAAAAGUGGAAUUCUCGGGUGCCAA` — result for “RBNS enrichment (R)”: 1.19.

Series 3 — method: protein-binding microarray; molecule type: double-stranded DNA, one strand shown; matrix: in vitro; concentration: 2200 nM top; notes: 60-bp whole probe; together with: salmon DNA 0.4 mg/ml; relative to: random background probes; direction: higher = stronger binding; shared flanks, not repeated: GCCTAGCAC … GTCTTGATTCGCTTGACGCTGCTG
Target: Interferon regulatory factor 7, full length, phosphomimetic (IRF7, Homo sapiens, UniProt Q92985, residues 1-503, S471D/S472D/S475D/S476D/S477D/S483D/S484D/S487D)
Chain of UniProt Q92985 (whole entry, unmodified, looked up): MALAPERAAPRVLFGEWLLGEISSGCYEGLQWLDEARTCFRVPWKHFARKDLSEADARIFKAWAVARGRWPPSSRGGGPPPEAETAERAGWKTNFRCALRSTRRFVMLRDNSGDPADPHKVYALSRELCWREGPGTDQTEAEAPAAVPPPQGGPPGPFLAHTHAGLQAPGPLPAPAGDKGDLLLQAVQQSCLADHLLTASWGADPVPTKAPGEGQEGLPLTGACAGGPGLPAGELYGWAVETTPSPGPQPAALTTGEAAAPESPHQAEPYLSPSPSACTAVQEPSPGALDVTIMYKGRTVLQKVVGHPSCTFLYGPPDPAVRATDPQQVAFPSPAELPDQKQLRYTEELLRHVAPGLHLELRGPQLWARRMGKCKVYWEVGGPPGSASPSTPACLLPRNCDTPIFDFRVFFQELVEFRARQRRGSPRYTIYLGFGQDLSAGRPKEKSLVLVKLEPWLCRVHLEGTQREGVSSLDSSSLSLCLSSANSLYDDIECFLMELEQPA
Under “fitted relative affinity”, `TTAGGACTGGGACTGGGTGAGTGCTAG` is recorded as -1.15 z-score.
For `TTAGGTTTCGGGTATCGGTTCGTGCTA`, “fitted relative affinity” read 7.02 z-score.
`TCATTTTTATTTTCTGAACTGTGCTAG` — result for “fitted relative affinity”: 2.86 z-score.
`GACGATATTAGTCTCGAGACGTGCTAG` — result for “fitted relative affinity”: 0.498 z-score.
`GACGATATCAGGCTCGAGACGTGCTAG` — result for “fitted relative affinity”: -0.0652 z-score.
For `TCAGAAATCAACTTTTTTACTGTGCTA`, “fitted relative affinity” read -0.605 z-score.
Under “fitted relative affinity”, `GTCAGTTTTGAGCTCTGTCTGTGCTAG` is recorded as 0.704 z-score.
`TTAGATTTCAGACTGCATTAGTGCTAG`: “fitted relative affinity” 0.266 z-score.
`TTAGGACTGGGTCTCGGGTAGTGCTAG`: “fitted relative affinity” -0.707 z-score.
`TCACTTTCACTTCTCCCACTGTGCTAG`: “fitted relative affinity” 12.8 z-score.
For `TCAAATTTCCCTCTCCCACTGTGCTAG`, “fitted relative affinity” read 1.54 z-score.
`TGAGGTTCCGGTTTCGGTTAGTGCTAG` — result for “fitted relative affinity”: 8.22 z-score.
For `GACCGTCTCGGTATCGGGACGTGCTAG`, “fitted relative affinity” read 0.14 z-score.
For `TACTATATGCATGTAAATAAGTGCTAG`, “fitted relative affinity” read 0.624 z-score.
`GACGGATTCGGTTTCGGGACGTGCTAG` — result for “fitted relative affinity”: 6.98 z-score.
`TGTTTTTCATTGTTTTTCATCGTGCTA`: “fitted relative affinity” 2.32 z-score.
Under “fitted relative affinity”, `TTAGGACTGGGGTATCGGTTCGTGCTA` is recorded as 0.16 z-score.
For `TCACTTCTGGATCTCAGACTGTGCTAG`, “fitted relative affinity” read 1.56 z-score.

Series 4 — method: aptamer microarray, sandwich; molecule type: DNA with 2'F-ANA; matrix: in vitro; concentration: 200 nM; together with: Cy3 exosite-II aptamer, 400 nM; direction: higher = stronger binding; strand: GGTTGGTGTGGTTGG
Target: Prothrombin, mature alpha-thrombin (F2, Homo sapiens, UniProt P00734)
Notes: whole 15-mer aptamer, many near background
Under “mean fluorescence intensity”, `2'F-ANA at 1 2 3 11 13` is recorded as 197 a.u.
Under “mean fluorescence intensity”, `2'F-ANA at 2 3 5 6 9 10 11 14 15` is recorded as 53.6 a.u.
Under “mean fluorescence intensity”, `2'F-ANA at 3 4 5 8 9 14` is recorded as 61.4 a.u.
`2'F-ANA at 1 2 6 8 9 10 13 14`: “mean fluorescence intensity” 51.2 a.u.
`2'F-ANA at 2 5 8 9 11` — result for “mean fluorescence intensity”: 66.8 a.u.
`2'F-ANA at 1 2 3 5 9 10 13`: “mean fluorescence intensity” 45.2 a.u.
`2'F-ANA at 4 5 6 8 9 10 11 14` — result for “mean fluorescence intensity”: 69.5 a.u.
Under “mean fluorescence intensity”, `2'F-ANA at 5 6 8 9 11 12 13 14 15` is recorded as 49.7 a.u.
`2'F-ANA at 1 2 3 4 5 6 7 8 11 14`: “mean fluorescence intensity” 50.7 a.u.
`2'F-ANA at 2 3 4 6 9 11 12`: “mean fluorescence intensity” 645 a.u.
`2'F-ANA at 2 3 5 6 7 8 11 13`: “mean fluorescence intensity” 84.5 a.u.
For `2'F-ANA at 2 3 6 7 11 13 14`, “mean fluorescence intensity” read 323 a.u.
For `2'F-ANA at 1 2 3 9 10 12 15`, “mean fluorescence intensity” read 103 a.u.
Under “mean fluorescence intensity”, `2'F-ANA at 1 3 6 9 11` is recorded as 223 a.u.
`2'F-ANA at 2 3 6 7 10 12 13`: “mean fluorescence intensity” 409 a.u.
Under “mean fluorescence intensity”, `2'F-ANA at 2 4 5 8 10 11 12 14` is recorded as 104 a.u.
`2'F-ANA at 3 4 7 9 12 14 15`: “mean fluorescence intensity” 326 a.u.
Under “mean fluorescence intensity”, `2'F-ANA at 2 3 4 5 8 11 13` is recorded as 69.9 a.u.
For `2'F-ANA at 1 3 4 5 6 11 12 15`, “mean fluorescence intensity” read 97 a.u.
`2'F-ANA at 1 5 6 7 8 9 10 12 13`: “mean fluorescence intensity” 50.4 a.u.
Under “mean fluorescence intensity”, `2'F-ANA at 1 3 5 9 10 14` is recorded as 46.4 a.u.
`2'F-ANA at 2 4 8 9 10 14 15`: “mean fluorescence intensity” 61.6 a.u.
`2'F-ANA at 1 2 3 4 5 6 8 9 10 13 15` — result for “mean fluorescence intensity”: 57.8 a.u.
For `2'F-ANA at 1 7 8 9 10 12 13 15`, “mean fluorescence intensity” read 70.3 a.u.
`2'F-ANA at 1 3 7 9 11 12` — result for “mean fluorescence intensity”: 448 a.u.
